# Experimental data of several laboratories.
# Numbered parts are unrelated; each lists some results of a single study. Changes are numbered by the printed parent chain.

# Set 1
# Target: Phosphate system positive regulatory protein PHO4, full length, GST-tagged (PHO4, Saccharomyces cerevisiae, UniProt P07270, residues 1-312)
# Technique: competition protein-binding microarray
# Molecule type: double-stranded DNA, one strand shown
# Sample: in vitro
# Tested at: 2 µM
# Setting: whole 60-bp probe, lowest competitor level
# Together with: Cbf1 competitor, 0.05 µM
# Direction: higher = stronger binding
# Shared flanks, not repeated: … GTCTTGATTCGCTTGACGCTGCTG
# Target sequence (chain): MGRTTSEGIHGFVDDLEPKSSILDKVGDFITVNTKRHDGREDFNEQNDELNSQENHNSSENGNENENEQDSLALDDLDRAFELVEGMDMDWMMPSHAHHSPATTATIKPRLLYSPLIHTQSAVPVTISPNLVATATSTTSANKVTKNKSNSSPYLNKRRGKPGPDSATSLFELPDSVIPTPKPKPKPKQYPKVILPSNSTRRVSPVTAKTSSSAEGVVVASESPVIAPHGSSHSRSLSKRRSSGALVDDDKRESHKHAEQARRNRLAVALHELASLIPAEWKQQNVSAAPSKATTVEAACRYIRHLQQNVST
Strand,fluorescence intensity
AAATTACTAAGTTGTCACCAGACTTACCCCGTATGA,2990 a.u.
GTCTTGTCTCATTGACGGGTGGGTGTCCCCACTTCA,4420 a.u.
TGCGCAACAACTTGGCCTGTGGGTGTATGTCTAGAA,4670 a.u.
TCAAGGCAAACGGGACATGTGGGGAGTTCGACTTTT,11100 a.u.
AGGAGAAAATCCGGCCACGATTTAACGGTTGTTGCT,6820 a.u.
GAGAACGCAGAGGACAACGTGGCCGTTGGGTTGATA,14200 a.u.
AAAGCGGTAATTTGGATAGTGGGTGCAGATATCTAT,4450 a.u.
CTTTGAACATTAAGGCACATGACAGGCTATGAGCCC,9580 a.u.
AATGCACTTGATTTGCACGTGGGACCTGGGCGGCTA,17600 a.u.
AGGTCTTTGCGTAGGATTGTATAAGCCCGGCCATTG,2440 a.u.
AGGAGTTTCTCCGGCCATGTGCGGCTGGTTCTACTT,9840 a.u.
TAGTGTTAAAGCAACACCGTGATGGCCTTGGTGGTG,5900 a.u.
TAATCAAGCTTTCGGCACGTGGTGAGCCAAGTTGTG,19100 a.u.

# Set 2
# Target: RNA binding protein fox-1 homolog 2, RRM domain, GST-SBP tag (RBFOX2, Homo sapiens, UniProt O43251-10, residues 100-194)
# Technique: RNA Bind-n-Seq
# Molecule type: RNA
# Sample: in vitro
# Tested at: 365 nM
# Setting: natural RNA segment, single round, ends assumed
# Baseline: no-protein control
# Direction: higher = stronger binding
# Shared flanks, not repeated: GGGAGUUCUACAGUCCGACGAUC … UGGAAUUCUCGGGUGCCAA
# Target sequence (chain): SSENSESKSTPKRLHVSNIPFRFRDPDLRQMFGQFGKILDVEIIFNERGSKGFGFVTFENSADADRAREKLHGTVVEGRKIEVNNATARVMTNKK
Strand,RBNS enrichment (R)
CGUAGUAUGCAGCCAGUGGUUAGUUAUUACAAAGAUCCCUUAGUUACUGUAUUGUUUGCUUUCCUUAAGUGCAGUCAUCUCUGAUAGCUUGAGUGAUGGUGUUUCAAAUC,0.289
CUUUGUCUCAUGAAACUACCAAAAAAGAAUGUCACCUUUUUUCUUUGUUGUGGAACCAGAGAUUAUAAAAAGGAAAAAAAAGGAAAAAAAAAAGUUGUCUUGUUGUAUUU,3.44
UGCCUGCCUCCUUGUGUGGACAGAGUGGUGAAGACGUAUUCCUCACCUCCUUGCCUUUCAGUAAAUGGCCACGAUGUGACUAUUUGUUGAGGUUUCCAGCCUCUUCCAAG,0.171
UCAGGCUCUGGGCAGCAGGUGUCAGGCUGCUCCUAUCAGUGAGUGGGGCCACUGCUGAUAUUUGGCCUCUGCACAAGUGUGAGUGAAGAGAAAGAUUGGAAGCAGCUGCU,0.869
CAGCCUUUAAGCACCCAUCGAGCACGGGCGGGAGCAGGGCUGUGGCCCAGCGCCGCCUUUUCACAUUUUUUGAGCCAUGGACAUGGGUUGUAAAAAUUUGUGGGGAGUAG,0.296
AUUGUGUGUAACCUGCACAAUGUGGAAAGCUGAUGAACCUGUGCCUCCGUGCUGUCAGUGUGGUGUGCUUUCUGCAUGGUUAUAUACUACUAGUAACUUUAUCAAAUUUC,0.762
CAGACCACACAGACCGUCUGAAAUGCGCCCGCCUGGCGGACAGCUCCCUUCUGAAGCAGAGAAGCCUCCAUGGUCACGAAGCAGCGUUGUGCUGUGUGUCCCUCGCAAGA,0.366
UCAUUUAACUUGGCUCACUUCUCUUCAGACUUGGGUAGAAGUGCAGAGCCACAGAAUUGCUUUCCUUCCCCGCCUUUGACAUGAGGCCUUCAGUAAAGAGCUACAGAACA,0.414

# Set 3
# Target: CCNF, cyclin fold, Cln2 fusion (human)
# Technique: yeast growth competition, sequencing
# Sample: yeast
# Setting: strong parent motif
# Baseline: not given
# Direction: higher = stronger binding
# Starting sequence: CDKN1A docking peptide (human); SKACRRLFGPVDS
Change,normalised enrichment score
G9K,6.05
A3P,7.2
K2D,6.81
D12H,7.43
K2G,7.55
R6Q,7.29
P10Q,6.42

# Single results of other studies
Molecule,target,test,system,conditions,how to read,measurement,value
"PhoQ, residues 284 288 289 292 302 303 GLASVI","PhoP, residues 12 14 15 18 19 LHHSG (Escherichia coli, UniProt P23836)","Sort-seq, item: YFP reporter",E. coli,"PhoQ-PhoP variant library, together with: 10 µM Mg2+","baseline: high Mg2+ state, higher = stronger signaling",fold induction,6.93

# For quick reference, copied from above (set 1):
Strand,fluorescence intensity
GTCTTGTCTCATTGACGGGTGGGTGTCCCCACTTCA,4420 a.u.
AGGTCTTTGCGTAGGATTGTATAAGCCCGGCCATTG,2440 a.u.
TCAAGGCAAACGGGACATGTGGGGAGTTCGACTTTT,11100 a.u.
TGCGCAACAACTTGGCCTGTGGGTGTATGTCTAGAA,4670 a.u.
